# Published values gathered from unrelated publications.
# Every numbered part comes from another study and shows a few of its results, in no order. Several values in a cell are separate wells, animals, samples, runs or records.
# Chain of UniProt Q9BZL6 (whole entry, looked up): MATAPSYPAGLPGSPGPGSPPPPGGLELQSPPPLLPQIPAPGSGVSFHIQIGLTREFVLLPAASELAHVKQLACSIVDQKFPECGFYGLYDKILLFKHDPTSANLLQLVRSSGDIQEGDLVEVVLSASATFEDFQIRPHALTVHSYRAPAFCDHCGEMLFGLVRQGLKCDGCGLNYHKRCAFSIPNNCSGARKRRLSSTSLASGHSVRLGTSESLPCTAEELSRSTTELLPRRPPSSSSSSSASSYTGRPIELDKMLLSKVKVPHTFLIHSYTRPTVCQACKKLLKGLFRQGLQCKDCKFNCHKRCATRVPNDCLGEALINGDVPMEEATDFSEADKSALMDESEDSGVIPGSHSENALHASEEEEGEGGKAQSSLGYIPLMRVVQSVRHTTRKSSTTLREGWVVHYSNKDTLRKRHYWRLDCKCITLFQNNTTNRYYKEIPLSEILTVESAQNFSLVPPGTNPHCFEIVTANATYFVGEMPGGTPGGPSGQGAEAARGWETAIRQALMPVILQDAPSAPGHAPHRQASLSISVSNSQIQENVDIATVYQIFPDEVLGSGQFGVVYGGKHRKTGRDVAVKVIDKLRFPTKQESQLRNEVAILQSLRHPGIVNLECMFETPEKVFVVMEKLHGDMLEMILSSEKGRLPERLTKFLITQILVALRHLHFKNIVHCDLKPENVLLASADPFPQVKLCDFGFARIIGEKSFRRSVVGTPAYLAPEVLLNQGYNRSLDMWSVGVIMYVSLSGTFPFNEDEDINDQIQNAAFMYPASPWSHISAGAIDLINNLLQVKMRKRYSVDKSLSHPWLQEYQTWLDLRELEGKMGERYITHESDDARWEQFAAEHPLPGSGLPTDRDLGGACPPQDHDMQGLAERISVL
# Chain of UniProt P49674 (whole entry, looked up): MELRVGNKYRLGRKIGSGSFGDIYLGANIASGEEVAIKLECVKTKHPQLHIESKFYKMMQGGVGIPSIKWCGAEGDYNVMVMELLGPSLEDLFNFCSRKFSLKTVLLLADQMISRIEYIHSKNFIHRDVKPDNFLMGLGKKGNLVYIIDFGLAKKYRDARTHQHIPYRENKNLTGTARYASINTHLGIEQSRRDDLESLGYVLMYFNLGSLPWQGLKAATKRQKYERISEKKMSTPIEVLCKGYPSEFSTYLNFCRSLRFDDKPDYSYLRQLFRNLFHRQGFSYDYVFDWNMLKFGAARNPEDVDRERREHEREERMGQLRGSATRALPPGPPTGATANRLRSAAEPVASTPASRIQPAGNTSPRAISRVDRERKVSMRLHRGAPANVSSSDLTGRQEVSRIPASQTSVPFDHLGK
# Chain of UniProt Q8NEV4 (whole entry, looked up): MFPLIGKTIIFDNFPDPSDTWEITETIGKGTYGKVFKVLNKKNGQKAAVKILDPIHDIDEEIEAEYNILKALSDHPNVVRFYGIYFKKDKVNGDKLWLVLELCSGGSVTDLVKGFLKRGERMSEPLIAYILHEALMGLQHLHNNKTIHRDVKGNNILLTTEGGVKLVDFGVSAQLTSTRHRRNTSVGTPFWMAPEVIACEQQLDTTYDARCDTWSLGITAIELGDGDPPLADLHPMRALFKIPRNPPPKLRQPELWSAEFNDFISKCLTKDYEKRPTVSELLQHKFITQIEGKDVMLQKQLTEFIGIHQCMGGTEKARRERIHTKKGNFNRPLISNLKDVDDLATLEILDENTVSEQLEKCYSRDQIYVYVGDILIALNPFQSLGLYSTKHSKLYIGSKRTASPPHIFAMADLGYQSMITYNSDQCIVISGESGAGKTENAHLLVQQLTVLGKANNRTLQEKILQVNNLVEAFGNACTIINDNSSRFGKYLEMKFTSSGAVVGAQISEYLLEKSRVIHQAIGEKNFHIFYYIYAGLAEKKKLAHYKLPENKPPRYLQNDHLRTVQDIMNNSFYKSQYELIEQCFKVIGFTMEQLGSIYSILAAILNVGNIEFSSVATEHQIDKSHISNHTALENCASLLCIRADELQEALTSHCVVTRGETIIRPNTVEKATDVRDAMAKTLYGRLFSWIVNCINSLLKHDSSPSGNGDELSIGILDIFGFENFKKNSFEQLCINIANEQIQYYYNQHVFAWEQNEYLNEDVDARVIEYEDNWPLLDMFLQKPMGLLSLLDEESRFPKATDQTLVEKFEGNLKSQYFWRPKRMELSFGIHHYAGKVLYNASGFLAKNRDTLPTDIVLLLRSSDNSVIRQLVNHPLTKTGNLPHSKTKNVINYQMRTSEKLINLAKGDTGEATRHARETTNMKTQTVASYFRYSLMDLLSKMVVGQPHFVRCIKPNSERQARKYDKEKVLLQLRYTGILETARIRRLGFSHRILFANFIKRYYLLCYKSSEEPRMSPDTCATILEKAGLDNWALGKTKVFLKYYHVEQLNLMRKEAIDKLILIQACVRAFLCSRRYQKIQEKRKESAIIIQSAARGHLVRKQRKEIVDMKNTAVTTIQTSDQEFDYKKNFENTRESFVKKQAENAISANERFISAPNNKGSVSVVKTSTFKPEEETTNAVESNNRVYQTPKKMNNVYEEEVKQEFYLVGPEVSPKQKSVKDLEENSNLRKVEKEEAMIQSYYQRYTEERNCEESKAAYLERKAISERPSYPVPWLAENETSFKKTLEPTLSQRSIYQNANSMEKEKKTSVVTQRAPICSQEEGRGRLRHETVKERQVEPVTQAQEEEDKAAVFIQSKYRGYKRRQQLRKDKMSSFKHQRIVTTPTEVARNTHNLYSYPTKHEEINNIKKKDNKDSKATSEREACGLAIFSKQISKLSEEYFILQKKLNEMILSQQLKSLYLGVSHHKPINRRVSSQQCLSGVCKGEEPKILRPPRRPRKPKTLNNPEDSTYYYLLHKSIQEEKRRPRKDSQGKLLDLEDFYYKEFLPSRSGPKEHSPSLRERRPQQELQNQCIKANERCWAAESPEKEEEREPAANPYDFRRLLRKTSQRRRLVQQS
# Chain of UniProt P53779 (whole entry, looked up): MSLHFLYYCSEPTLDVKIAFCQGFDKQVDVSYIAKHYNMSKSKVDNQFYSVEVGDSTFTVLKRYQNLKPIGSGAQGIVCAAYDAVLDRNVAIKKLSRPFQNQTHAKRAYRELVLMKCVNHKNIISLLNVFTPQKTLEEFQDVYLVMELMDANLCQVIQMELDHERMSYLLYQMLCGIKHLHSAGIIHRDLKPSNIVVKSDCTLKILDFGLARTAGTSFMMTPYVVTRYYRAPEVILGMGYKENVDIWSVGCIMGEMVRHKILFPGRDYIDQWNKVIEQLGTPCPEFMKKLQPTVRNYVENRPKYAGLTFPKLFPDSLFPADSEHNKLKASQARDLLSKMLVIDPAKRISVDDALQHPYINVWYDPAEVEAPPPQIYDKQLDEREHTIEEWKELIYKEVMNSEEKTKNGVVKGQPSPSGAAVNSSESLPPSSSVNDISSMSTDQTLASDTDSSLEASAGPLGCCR
# Chain of UniProt P49761 (whole entry, looked up): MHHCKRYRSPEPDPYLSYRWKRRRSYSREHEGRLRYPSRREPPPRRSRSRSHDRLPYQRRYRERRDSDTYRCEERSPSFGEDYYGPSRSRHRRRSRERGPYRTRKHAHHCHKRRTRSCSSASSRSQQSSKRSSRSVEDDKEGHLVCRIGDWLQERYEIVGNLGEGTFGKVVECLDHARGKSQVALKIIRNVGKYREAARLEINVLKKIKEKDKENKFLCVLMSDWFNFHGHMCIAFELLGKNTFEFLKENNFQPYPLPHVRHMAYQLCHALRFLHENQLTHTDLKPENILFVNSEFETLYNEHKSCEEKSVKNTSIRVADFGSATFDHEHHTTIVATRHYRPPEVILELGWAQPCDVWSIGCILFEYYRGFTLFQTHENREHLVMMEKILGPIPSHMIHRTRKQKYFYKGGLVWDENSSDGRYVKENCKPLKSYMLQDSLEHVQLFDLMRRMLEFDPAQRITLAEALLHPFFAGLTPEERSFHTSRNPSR
# Chain of UniProt O00506 (whole entry, looked up): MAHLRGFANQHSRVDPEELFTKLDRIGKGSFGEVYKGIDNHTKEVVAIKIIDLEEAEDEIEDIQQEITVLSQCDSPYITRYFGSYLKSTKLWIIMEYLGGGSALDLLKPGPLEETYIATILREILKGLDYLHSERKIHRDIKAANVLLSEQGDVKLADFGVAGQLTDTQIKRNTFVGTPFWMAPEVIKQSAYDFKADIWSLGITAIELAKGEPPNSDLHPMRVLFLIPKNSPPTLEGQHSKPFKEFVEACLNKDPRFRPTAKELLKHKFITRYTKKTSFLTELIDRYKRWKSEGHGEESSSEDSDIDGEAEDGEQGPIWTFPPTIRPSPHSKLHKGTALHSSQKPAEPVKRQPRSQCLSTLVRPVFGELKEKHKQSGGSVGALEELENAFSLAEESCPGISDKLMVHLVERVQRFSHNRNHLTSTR
# Chain of UniProt Q9UHD2 (whole entry, looked up): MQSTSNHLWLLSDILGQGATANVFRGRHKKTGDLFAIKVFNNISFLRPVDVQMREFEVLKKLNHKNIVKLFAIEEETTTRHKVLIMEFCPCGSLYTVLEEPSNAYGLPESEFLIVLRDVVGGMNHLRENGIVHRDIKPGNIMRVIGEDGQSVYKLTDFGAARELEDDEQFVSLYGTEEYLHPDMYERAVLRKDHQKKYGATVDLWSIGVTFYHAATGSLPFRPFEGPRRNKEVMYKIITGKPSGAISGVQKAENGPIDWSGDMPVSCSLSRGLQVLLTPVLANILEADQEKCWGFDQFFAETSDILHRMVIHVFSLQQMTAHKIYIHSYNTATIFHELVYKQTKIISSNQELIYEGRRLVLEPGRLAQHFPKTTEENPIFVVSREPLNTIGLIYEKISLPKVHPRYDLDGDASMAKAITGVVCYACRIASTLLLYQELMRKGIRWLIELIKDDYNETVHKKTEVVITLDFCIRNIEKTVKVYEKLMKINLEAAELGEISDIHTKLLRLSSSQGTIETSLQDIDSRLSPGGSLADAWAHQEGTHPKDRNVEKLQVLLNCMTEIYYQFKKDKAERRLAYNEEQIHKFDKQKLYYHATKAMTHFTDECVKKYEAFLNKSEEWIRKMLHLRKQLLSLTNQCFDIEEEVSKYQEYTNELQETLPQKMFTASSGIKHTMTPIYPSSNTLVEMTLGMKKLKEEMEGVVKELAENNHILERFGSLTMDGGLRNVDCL

# Study 1
# Cell line: mouse MPNST tumor cells
# Method: high-content immunofluorescence imaging
# Measured: nuclear SOX9
# Concentration: 10 µM
# Time: 12 h
# Setting: mean of 2 replicates
# Baseline: DMSO control
# Direction: higher = more nuclear SOX9
Structure (SMILES),nuclear SOX9 intensity
CCOc1cc2ncc(C#N)c(Nc3ccc(OCc4cccc(F)c4)c(Cl)c3)c2cc1NC(=O)/C=C/CN(C)C,97.4 % of DMSO
CC[N+](C)(C)Cc1ccccc1Br,104 % of DMSO and 70.7 % of DMSO
CC(C)(Oc1ccc(Cl)cc1)C(=O)O,90.4 % of DMSO and 91.1 % of DMSO

# Study 2
# Structure (SMILES): COc1cc(-c2cn(C3CCc4c(F)cccc4N(CC(F)(F)F)C3=O)nn2)ccc1-n1cnc(C)c1 (stereo not shown)
# Observed: cell-free assay
# Method: competition with immobilised ligand
# Concentration: 1 µM
target,remaining binding [%]
"MAST1 (Homo sapiens, UniProt Q9Y2H9)",100
"Myosin-IIIa (MYO3A, Homo sapiens, UniProt Q8NEV4)",100
"Ribosomal protein S6 kinase alpha-1, N-terminal kinase domain (RPS6KA1, Homo sapiens, UniProt Q15418)",81
"STK26 (Homo sapiens, UniProt Q9P289)",90
"STK25 (Homo sapiens, UniProt O00506)",100
"CAMKK1 (Homo sapiens, UniProt Q8N5S9)",100
"ACVR1 (Homo sapiens, UniProt Q04771)",100
"MAPK10 (Homo sapiens, UniProt P53779)",72
"EPHA3 (Homo sapiens, UniProt P29320)",97
"TBK1 (Homo sapiens, UniProt Q9UHD2)",100
"MAPK12 (Homo sapiens, UniProt P53778)",79
"PRKD2 (Homo sapiens, UniProt Q9BZL6)",100
"CLK3 (Homo sapiens, UniProt P49761)",83
"Tyrosine-protein kinase ABL1, phosphorylated (ABL1, Homo sapiens, UniProt P00519, T315I)",83

# Study 3
# SMILES: CC(=O)N[C@@H](Cc1c[nH]c2ccccc12)C(=O)N[C@@H](CCC(=O)C=[N+]=[N-])C(=O)OC(C)C
# Method: flow cytometry
# Species: mice bearing MC38-OVA tumours
# Medium: tumour-infiltrating CD8+ T cells
# Dose: dose not given
test,scale,cell fraction
measured: TCF1+ CD8+ cells,baseline: OVA-tetramer+ CD8+ TILs,26.2% and 37.2% and 40.5% and 47.7% and 20.8% and 17% and 35.3% and 17.3%
measured: CD62L+ CD8+ cells,baseline: CD8+ TILs,23.6% and 16.9% and 17.1% and 28.7%
measured: PD-1+ LAG-3+ cells,baseline: CD8+ TILs,21.3% and 31.9% and 25.5%
measured: TCF1+ CD8+ cells,baseline: CD8+ TILs,11.8% and 23.7% and 19.4% and 24.2% and 14.2% and 11.2% and 14.6% and 21.6%

# Study 4
# Target: RNA binding protein fox-1 homolog 2, RRM domain, GST-SBP tag (RBFOX2, Homo sapiens, UniProt O43251-10, residues 100-194)
# Method: RNA Bind-n-Seq
# Molecule type: RNA
# Medium: in vitro
# Concentration: 365 nM
# Setting: natural RNA segment, single round, ends assumed
# Baseline: no-protein control
# Direction: higher = stronger binding
# Constant ends, left off below: GGGAGUUCUACAGUCCGACGAUC … UGGAAUUCUCGGGUGCCAA
# Residues (chain): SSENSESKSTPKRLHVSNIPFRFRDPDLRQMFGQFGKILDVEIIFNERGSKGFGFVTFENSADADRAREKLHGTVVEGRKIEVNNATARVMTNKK
Sequence,RBNS enrichment (R)
GAAACAAGGAGUUGGCAUCUUGGAUCUCAGAAUGGCCUGGAAACGGAUGGCCUCUACGCUGUUCCAUCACAGUCUCCAACUAAGGCUUAUGGUAUUUCAUUAAACUGUUG,0.345
GGCGGAAGUAAAGGCUCAGGAGACAGCCACCACAGAGGCAGAUGCCAAACCAAAGACAGAUUUGCUUAACCAACAGACGGGUGCUGACCCAUCCAGAACCACGUGCACGA,2.43
UCCAUCAACACUGCGCCGGGUACCAUGGACGGCCCCGUCAGCCACACCUGUCAGCCCAAGCAGAGUGAUUCAGGGGCUCCCCGGGGGCAGACACCUGUGCACCCCAUGAG,0.301
GUUUCCUUUUAGACACAAACAAUAAAAUUAUUUUGAAGGCAAUGAGAAACUAAUCAAAGACUAAUCUCUGUUGGAGGUUGGGAAUAAUGUUUUGCCACUUCUGCAGACUG,0.308
UUAAAACUAUACAGUUACAUCUUAAUUCCAUCCAAAGAAGAUACAGUUUGAAGACAGAAGUGUACUCUCUACAAUGCAAUUUACUGUACAGUUAGAAAGCAAAGUGUUAA,0.46
UCAUCUGCAUAGUUGCUUGGAUCAUUGUUACAUCAGUUCAGCGCAUAGUAGCAAUUCUGGUGUGGCCAAGGUGUUGGCUGAAGUUUAUUCUUCAUUGGAUGUUUAAAGCA,1.67
AUACAUAUAUACAUUCAUAUACGACAAAGUAGGAGCUGUCCCCUUAGGAUGCAUAGCUGCCCCUAGGGUACGUAGCUGAACACUGACAAUGGCGUUCUUCUGAAAGAGCC,0.212
CCUUUUUGGGGGAGUGAGAAUACAGAUACAAGAAGACAGACACAUUUAGAUGGAAUCUUACCACGACUUGAGGCUAGGACCACCCACUUCCUCUUUCCCAGCCCUAUUUC,0.393

# Single results of other studies
Structure (SMILES),tested on,test,system,setting,endpoint,value
CC(C)n1cnc(-c2ccc(F)cc2)c1-c1ncc(C(=O)Nc2ccc(N3CCN(C)CC3)cc2)[nH]1,,,IPF patients,"60 mg once daily, adverse event",Haemorrhoids incidence,0%
Cc1nc(-c2ccccc2)c(-c2ccncc2)o1,"CSNK1E (Homo sapiens, UniProt P49674)","enzyme activity, inhibitor, radiometric",,,IC50,3.36 µM

# For quick reference, copied from above (study 3):
test,scale,cell fraction
measured: TCF1+ CD8+ cells,baseline: OVA-tetramer+ CD8+ TILs,26.2% and 37.2% and 40.5% and 47.7% and 20.8% and 17% and 35.3% and 17.3%
measured: CD62L+ CD8+ cells,baseline: CD8+ TILs,23.6% and 16.9% and 17.1% and 28.7%
measured: PD-1+ LAG-3+ cells,baseline: CD8+ TILs,21.3% and 31.9% and 25.5%
